Results from different studies.
A part holds a random share of what one study measured. Changes are numbered by the printed parent chain.

Set 1
Target: RNA binding protein fox-1 homolog 2, RRM domain, GST-SBP tag (RBFOX2, Homo sapiens, UniProt O43251-10, residues 100-194)
Technique: RNA Bind-n-Seq
Molecule type: RNA
Matrix: in vitro
Tested at: 365 nM
Notes: natural RNA segment, single round, ends assumed
Relative to: no-protein control
Direction: higher = stronger binding
Constant ends, left off below: GGGAGUUCUACAGUCCGACGAUC … UGGAAUUCUCGGGUGCCAA
Construct (chain): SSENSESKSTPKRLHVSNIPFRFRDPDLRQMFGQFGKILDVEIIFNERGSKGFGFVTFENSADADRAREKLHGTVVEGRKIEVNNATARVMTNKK
Oligonucleotide	RBNS enrichment (R)
UUUGUAUAUACGGUUACGUAUUAACUCUGGAAUCCUAUGGGCUCAUCUUGCUCACCCAAUGUGGGAGUCUGGUUUGAGCAAGCGAGCUGAAUGUGACUAUUAAAAAAAAU	1.41
GCUUGUGUCAUGGGGAAACAGUUUCUCCCUCUACUCACAACACUAAAGGGAAAAAGGUGGAUUCAGAACUAUGACUUCAGGGCCCAGCAGUGUUGAUAGAGCAGCAUAUU	0.645
UUCUGAUAUAAACUGUCAAUAUUGCUUUUACCAUGUGUAAGAUUUACUUAGUAAUCACAGAUUUACCUAAAAUAAAAGGACCCGGGUUGCAGUGAUAUUUAGUUAAUGAU	0.544
UAGAACCGCAAUGCAGGCUUGGGGAAUUGGCUCAGUCAGAGAAGGCCUUGCUUUGCAAGGAUGGUAAAGAGAAAGCAGACCAGCCAGAUGCAGUCAGUGGUGUAUGCUUG	1.7
CCAGCUUUAAGCACUUUGUAAGACAUGGCUGAAAGUAGCUUUUCUAUCAGAAUUGCAGAUAGUCAUGUUGGGCUAACAGUCAAUUGGAUAUAUUCCUUUACCUCACAUGA	0.322
AUAUCCUGUGGUGAUUAUGUAUAAUGAAACAGUCUUAUUUUGUGCUCUUUGGUUUCUUAAAAGGAAAGCUUGUUUUCUUUCCUUUAUCAUUACAGAGGUAUGUCUUUGGU	0.827
UACUUUGAGACUCACCUCUCAUAAAGCUUCUUUUUCACAUUACUGUUAAAGACCAGACGUUCUAGAAAAGACCCCUCCUCUCAUGAGCUCCCCCAUCCCUGCUACAGAAC	0.514
AGAUGUUCUAAGUCUUUCCAUUGGAUCUCAUUGGACCCUUCCAUGGUGUGAUCGUCUGACUGGUGUUAUCACCGUGGGCUCCCUGACUGGGAGUUGAUCGCCUUUCCCAG	0.395
GUGUUCUCAGCCCAGCCCUCCCUGAGAACCCACAUUUGGCUCGUAUGUAUGUGAGCACGUUGGGGUGCGCAUAAGCUAUCACCAUCUUCUUCUCUUCUAUCAUCCAAAUC	0.361
UCCAUUUUAUAGAUGAGGAAACUGAGGCAGUAUGACUGAGGCCGAGAGCAGUGGUUAAGACAGACUUUGGGAUCAAAUCACCCUAGGUGCGGGCAGGUUUCUAGGCUGCU	0.516
UGGGCUUUUCCCCACCCAGAGAAUAGCCCCCUUCGAUACACAUCAGCUGGAUUUUCAAAAGCUUCAAAGUCUUGGUCUGUGAGUCACUCUUCAGUUUGGGAGCUGGGUCU	0.344
UCAUUACCCAUUAAUUAUGGCCAACUGUAAGGAGAUAGUCCUGUUACUAUUCUUAAAUGAAGUCCUCCCCAAACGUGAAUGGAAGCAGAGUUCUUUGCCAGGCUGCCUGC	0.617

Set 2
Target: Sal-like protein 4, full length isoform A (SALL4, Homo sapiens, UniProt Q9UJQ4, residues 1-1053)
Sequence of UniProt Q9UJQ4 (whole entry, looked up): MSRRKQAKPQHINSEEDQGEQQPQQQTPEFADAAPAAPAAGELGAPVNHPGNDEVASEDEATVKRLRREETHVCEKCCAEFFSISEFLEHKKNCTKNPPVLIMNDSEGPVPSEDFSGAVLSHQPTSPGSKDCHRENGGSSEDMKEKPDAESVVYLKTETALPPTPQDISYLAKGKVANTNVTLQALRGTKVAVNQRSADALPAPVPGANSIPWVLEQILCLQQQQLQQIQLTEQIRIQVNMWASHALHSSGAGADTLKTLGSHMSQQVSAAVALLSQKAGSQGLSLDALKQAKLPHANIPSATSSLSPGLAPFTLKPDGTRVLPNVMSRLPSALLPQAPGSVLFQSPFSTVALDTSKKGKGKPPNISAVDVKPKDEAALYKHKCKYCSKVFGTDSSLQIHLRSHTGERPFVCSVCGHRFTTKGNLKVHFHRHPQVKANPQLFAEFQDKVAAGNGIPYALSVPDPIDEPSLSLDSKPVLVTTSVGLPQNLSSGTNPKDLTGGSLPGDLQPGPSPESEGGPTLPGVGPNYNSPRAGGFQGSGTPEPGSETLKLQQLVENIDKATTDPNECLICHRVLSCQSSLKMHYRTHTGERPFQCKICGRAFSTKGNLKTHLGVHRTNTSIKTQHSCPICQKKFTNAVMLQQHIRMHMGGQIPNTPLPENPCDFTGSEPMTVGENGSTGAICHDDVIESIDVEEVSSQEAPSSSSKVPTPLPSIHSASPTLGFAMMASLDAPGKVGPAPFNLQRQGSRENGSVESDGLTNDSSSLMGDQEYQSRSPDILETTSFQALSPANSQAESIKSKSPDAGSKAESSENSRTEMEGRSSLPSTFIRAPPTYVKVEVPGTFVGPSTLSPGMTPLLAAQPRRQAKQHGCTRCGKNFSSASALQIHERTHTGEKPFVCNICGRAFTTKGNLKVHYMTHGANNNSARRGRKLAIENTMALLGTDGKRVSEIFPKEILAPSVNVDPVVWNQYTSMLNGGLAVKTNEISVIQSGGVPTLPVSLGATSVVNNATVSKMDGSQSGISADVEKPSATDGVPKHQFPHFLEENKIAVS
Technique: universal PBM
Molecule type: double-stranded DNA, one strand shown
Matrix: in vitro
Tested at: 600 nM
Notes: 8-mer, flanks averaged, mean of replicates
Direction: higher = stronger binding
Oligonucleotide	E-score
ACAGTTAA	0.167
AGGCACAT	0.0266
ACTGGGGG	-0.325
CTTTTCCC	0.0167
ACAATTGT	0.213
ATGACTGG	-0.199
CAGGTGAG	-0.208
TTTCAAAA	0.383
ATGTACTA	0.116
GTTTTAGA	0.117
CTATGGTA	0.128
CGAAGAGA	0.12
ATCCAGAG	0.06
AATTAACG	0.246
CCGATACA	0.16
AGCCCCAG	-0.378
GTCGGCTA	-0.09

Set 3
Target: ABI1, truncated, D143A, DHFR fusion (Arabidopsis thaliana, UniProt P49597)
Technique: DHFR PCA, dose-response
Matrix: yeast
Notes: Hill fit, mean, not affinity
With: (+)-ABA, dose series
Direction: lower = more sensitive
Starting sequence: PYL1, truncated, DHFR fusion (Arabidopsis thaliana, UniProt Q8VZS8); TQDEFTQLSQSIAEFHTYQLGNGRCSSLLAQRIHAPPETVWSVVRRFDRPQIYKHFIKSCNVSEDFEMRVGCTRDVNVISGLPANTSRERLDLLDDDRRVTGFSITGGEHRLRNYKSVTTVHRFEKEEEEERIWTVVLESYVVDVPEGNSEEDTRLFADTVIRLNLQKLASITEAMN
Change	ABA EC50 [µM]
Y53I	186
H34A	3.17
R155M	6.88
S26R	17
R155G	111
T1A	1.47
S42P	22.4
S27W	233
E151T	3.55
S171C	2.45
L28G	218
D3A	2.91
N149K	197
P146G	53.2
D75Q	0.669
V70N	36.6
T73P	160
H34R	2.73
H34W	7.84
V43F	6.73
N177G	0.901
A30K	1.74
I12C	75.3

Set 4
Target: Histone acetyltransferase KAT6A, both winged helices, GST fusion (KAT6A, Homo sapiens, UniProt Q92794, residues 1-181)
Technique: protein binding microarray
Molecule type: double-stranded DNA, one strand shown
Matrix: in vitro
Tested at: not given
Notes: 8-mer, flanks averaged, mean of 2 arrays, mostly near background
Relative to: not given
Direction: higher = stronger binding
Construct (chain): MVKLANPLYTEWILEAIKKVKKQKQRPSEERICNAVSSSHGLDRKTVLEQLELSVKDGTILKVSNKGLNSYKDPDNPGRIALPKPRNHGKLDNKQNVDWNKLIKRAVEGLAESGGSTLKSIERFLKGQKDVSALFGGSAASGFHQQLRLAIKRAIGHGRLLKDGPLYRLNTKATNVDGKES
Oligonucleotide	E-score
AAACGACC	0.0227
ACACAAGG	-0.126
AGTCTAGC	-0.0444
CTACCTAC	0.0253
CTCAGACC	-0.0439
CGGTCTGA	0.161
TCCAGGAA	-0.151
AATAACCA	-0.185
AAGAGGCA	-0.161
CACCCCTG	-0.286
CAGCCACC	-0.0757
CGTACTGC	0.0914
GCCAACGA	-0.0219
AGTAGGAC	-0.0868
CGCGGAGC	0.277
CACCGTAA	0.0797
TCGTGGCA	-0.186
AGACCAGG	-0.114
GCTGGCTA	-0.22

Set 5
Target: Interferon regulatory factor 7, full length, phosphomimetic (IRF7, Homo sapiens, UniProt Q92985, residues 1-503, S101K/S471D/S472D/S475D/S476D/S477D/S483D/S484D/S487D)
Sequence of UniProt Q92985 (whole entry, unmodified, looked up): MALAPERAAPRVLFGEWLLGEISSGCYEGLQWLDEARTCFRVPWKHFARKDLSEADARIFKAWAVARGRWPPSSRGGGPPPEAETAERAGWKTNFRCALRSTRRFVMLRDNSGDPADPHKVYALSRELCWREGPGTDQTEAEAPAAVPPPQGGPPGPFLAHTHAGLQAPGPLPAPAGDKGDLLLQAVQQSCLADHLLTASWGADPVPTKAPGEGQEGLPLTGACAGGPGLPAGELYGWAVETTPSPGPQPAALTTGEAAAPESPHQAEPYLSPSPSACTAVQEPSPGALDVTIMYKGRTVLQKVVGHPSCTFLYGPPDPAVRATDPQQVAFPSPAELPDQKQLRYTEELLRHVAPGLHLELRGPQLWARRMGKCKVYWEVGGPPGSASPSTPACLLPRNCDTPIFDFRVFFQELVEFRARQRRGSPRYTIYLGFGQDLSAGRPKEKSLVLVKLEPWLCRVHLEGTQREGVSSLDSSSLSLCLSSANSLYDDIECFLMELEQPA
Technique: protein-binding microarray
Molecule type: double-stranded DNA, one strand shown
Matrix: in vitro
Tested at: 250 nM
Notes: 60-bp whole probe
With: salmon DNA 0.4 mg/ml
Relative to: random background probes
Direction: higher = stronger binding
Constant ends, left off below: GCCTAGCAC … GTCTTGATTCGCTTGACGCTGCTG
Oligonucleotide	log fluorescence [z-score]
GACGATTTCAGACTGGATACGTGCTAG	0.034
TTCATTTTGTGTCTGGGCATGTGCTAG	0.337
GACGGTTTCCTTTCCGTGACGTGCTAG	4.14
TTAGGTTTCCTACTCCTTTAGTGCTAG	1.45
TTAGGTATCCTTCTCCTTCAGTGCTAG	0.174
TTAGGTATCGGTATCAGTTAGTGCTAG	1.45
GACGGTATCGGGCTTCGGGACGTGCTA	-0.467
GACGGACTGGGTCTCGGGACGTGCTAG	-0.329
GACGATTCCAGTTTCTAGACGTGCTAG	1.64
TTAGGTTTCGGGTTTCGGCTAGTGCTA	11.6
ATAGATCTCAGTTTCGATTAGTGCTAG	8.25
ATAGGTCTCGGTCTCGGTTAGTGCTAG	2.76
TCATATTTAAGACCTATGACTGTGCTA	0.729
GAAGGTTTCCTTTTCCTGACGTGCTAG	6.73
TCACCTCAGGGTTTCAGACTGTGCTAG	0.0336
GACGGGCTGGGTATCGGGACGTGCTAG	-0.862
TCAATTTTCTAAATGCCACTGTGCTAG	1.47

A few entries again (set 4):
Oligonucleotide	E-score
AGTAGGAC	-0.0868
CGCGGAGC	0.277
CACCGTAA	0.0797
GCCAACGA	-0.0219
CTACCTAC	0.0253
AGTCTAGC	-0.0444
